Published values pooled from the literature.
Compare with care: the assays were run in different laboratories. ± gives the spread as reported.
Target: Cannabinoid receptor 2 (CNR2, Homo sapiens, UniProt P34972)
Sequence of UniProt P34972 (whole entry, looked up): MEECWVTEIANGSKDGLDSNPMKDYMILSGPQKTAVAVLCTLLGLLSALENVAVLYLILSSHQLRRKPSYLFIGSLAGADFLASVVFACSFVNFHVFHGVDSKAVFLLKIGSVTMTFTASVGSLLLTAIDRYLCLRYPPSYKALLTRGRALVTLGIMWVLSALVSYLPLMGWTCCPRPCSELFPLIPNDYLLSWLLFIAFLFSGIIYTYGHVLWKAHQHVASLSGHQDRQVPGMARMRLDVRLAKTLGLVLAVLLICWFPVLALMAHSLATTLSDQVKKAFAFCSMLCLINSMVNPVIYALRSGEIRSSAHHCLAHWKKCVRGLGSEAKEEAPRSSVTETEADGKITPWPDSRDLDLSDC

CCOC(=O)C(CC)(CC)NC(=O)c1ccc(C2CC2)c(Cc2ccc(F)cc2)n1
Emax (cAMP, agonist, TR-FRET; CHO): 102%

CC(O)CCn1cc(C(=O)c2cccc3ccccc23)c2ccccc21 (stereo not drawn)
Emax (agonist; CHO-hCB2 cell membranes; 10 µM): 48.2 ± 10.9 fmol/mg

COC(=O)c1ccc2c(C=C3C(=O)C4CCN3CC4)cn(Cc3ccccc3)c2c1
EC50 (cAMP increase; CHO-hCB2): 0.048 ± 0.0039 µM

CCOC(=O)[C@](CC)(CCCSCCOCCOCCNC(=O)c1ccc(-c2c3ccc(=N)c(S(=O)(=O)O)c-3oc3c(S(=O)(=O)O)c(N)ccc23)c(C(=O)O)c1)NC(=O)c1ccc(C2CC2)c(Cc2ccc(F)cc2)n1
enantiomer affinity ratio (radioligand binding; baseline: R over S enantiomer): 1.4 fold

CCCCCn1cc(C(=O)c2cccc3ccccc23)c2cc(O)ccc21
Emax (agonist; CHO-hCB2 cell membranes; 10 µM): 38 ± 10.4 fmol/mg

CCOC(=O)[C@@](CC)(CCCSCCOCCOCCNc1ccc([N+](=O)[O-])c2nonc12)NC(=O)c1ccc(C2CC2)c(Cc2ccc(F)cc2)n1
Emax (cAMP, agonist): 84%

CCCCCn1cc(C(=O)c2ccc3c(c2)CC(C)(C)C3)c2ccccc21
Emax (Gαi1 engagement, agonist, BRET; HEK293T; baseline: reference agonist): 75.3 ± 5.2%

COC1CC(=O)N(C)C=CCCCC(=O)N(C)C(C(C)C)C(=O)N(C)C(CC(C)C)C(=O)OC(C(C)C)CC(C)C1 (stereo not drawn)
inhibition (β-arrestin recruitment, antagonist; 20 µM): > 70%

CCCCCn1cc(C(=O)c2ccc3ccccc3c2)c2ccccc21
Emax difference (Gαi1 engagement, agonist, BRET; baseline: CB1 minus CB2): ~30%

CC1=C[C@H]2c3c(O)cc(CCc4ccccc4)cc3OC(C)(C)[C@H]2CC1
binding inhibition (10 µM): ≥ 90%

CCCCn1cc(C(=O)c2cccc3ccccc23)c2cc(O)ccc21
Emax (agonist; CHO-hCB2 cell membranes; 10 µM): 17.6 ± 5.7 fmol/mg

CCCCCn1cc(C(=O)c2cccc3ccccc23)c2ccccc21
Emax (β-arrestin recruitment, agonist, BRET; HEK-293T): 75.1%

Excerpt of the above:
COC1CC(=O)N(C)C=CCCCC(=O)N(C)C(C(C)C)C(=O)N(C)C(CC(C)C)C(=O)OC(C(C)C)CC(C)C1 (stereo not drawn)
inhibition (β-arrestin recruitment, antagonist; 20 µM): > 70%
